Results pooled from the literature.
Lines come from different studies, so protocols differ. Values joined by “and” are separate records of one study, mostly repeats; a detail may differ. Numbers after ± are the reported error.

CC(=O)Oc1cc2c(s1)CCN(C(C(=O)C1CC1)c1ccccc1F)C2 (centres unmarked) — patients with IPA above 90% (light transmittance aggregometry; human patients, platelet-rich plasma; dose not given, 2 h, together with: ADP 20 µM; relative to: patients): 0%
CO[C@H]1CC[C@H](N2C(=O)CNc3ncc(-c4ccc(C(C)(C)O)nc4)nc32)CC1 — p4EBP1 change from baseline (flow cytometry; stimulated T cells, human, blood; 60 mg single dose, 1.5 h, mean; relative to: baseline): -31.6%
Cc1ncsc1-c1ccc(CNC(=O)[C@@H]2C[C@@H](O)CN2C(=O)[C@@H](NC(=O)C2(C#N)CC2)C(C)(C)C)cc1 — F4/80+ cells (flow cytometry; bone marrow-derived macrophages, UT-/-, mouse; dose not given): 0.04%
CC(C)(C)c1sc2ncnc(Oc3c(F)cccc3OC(F)(F)F)c2c1-c1ccc(Cl)cc1 — heat hyperalgesia (Mrgpr knock-out mice, CCI; oral, 16 mg/kg): inhibited
c1ccc(-c2n[nH]cc2-c2ccnc3ccccc23)nc1 — log2 fold change (kinase binding, competitor, MIB/MS competition, refers to: PBS2; Candida albicans cell lysate; 1 µM; relative to: DMSO): 1.37
CC(C)c1ccc(S(=O)(=O)Nc2ccc(O)c(Br)c2)cc1 — IC50 (CoA-CPM signal reduction, CPM fluorescence thiol; cell-free biochemical; assay interference counter-screen, together with: CoA replacing acetyl-CoA): > 125 µM
COc1ccccc1[C@H](Cn1c(=O)n(C(C)(C)C(=O)O)c(=O)c2c(C)c(-c3ncco3)sc21)OC1CCOCC1 — fractional hepatic DNL ([1-13C]acetate infusion, isotopomer analysis; overweight or obese healthy men, plasma VLDL-TG palmitate; oral, 50 mg single dose, 5 h post-dose, together with: oral fructose): 5.18 % new palmitate
CC(C)C[C@H](NC(=O)[C@H](CCC1CCCCC1)NC(=O)[C@@H]1CCCN1C(=O)c1ccc(F)cc1)C(=O)NC(C)(C)C(=O)N[C@@H](CC(C)C)C(=O)N[C@@H](CC(C)C)C(=O)NC(C)(C)C(=O)NC(C)(C)C(=O)NCCC(=O)NCCN(C)C — calcein leakage (small unilamellar vesicles; concentration not given): 6.61%
c1ccc(CNc2nc(-c3ccccc3)no2)cc1 — IC50 (CoA-CPM signal reduction, CPM fluorescence thiol; cell-free biochemical; assay interference counter-screen, together with: CoA replacing acetyl-CoA): > 125 µM
CSCCNc1nc(SCCC(F)(F)F)nc2c1ncn2[C@@H]1O[C@H](COP(=O)(O)OP(=O)(O)C(Cl)(Cl)P(=O)(O)O)[C@@H](O)[C@H]1O — patients with IPA above 90% (light transmittance aggregometry; human patients, platelet-rich plasma; dose not given, 3 h, together with: ADP 5 µM; relative to: patients): 2.6%
CO[C@H]1C[C@@H]2CC[C@@H](C)[C@@](O)(O2)C(=O)C(=O)N2CCCC[C@H]2C(=O)O[C@H]([C@H](C)C[C@@H]2CC[C@@H](O)[C@H](OC)C2)CC(=O)[C@H](C)/C=C(\C)[C@@H](O)[C@@H](OC)C(=O)[C@H](C)C[C@H](C)/C=C/C=C/C=C/1C — blood glucose concentration (healthy adult horses, blood; intravenous, 0.06 mg/kg, 90 min, oral glucose test 4 h post-dose): 153 mg/dL
Cc1n[nH]c2ccc(-c3cc(OC[C@@H](N)Cc4ccccc4)cnc3-c3ccoc3)cc12 — log2 fold change (kinase binding, competitor, MIB/MS competition, refers to: MCK1; Candida albicans cell lysate; 100 nM; relative to: DMSO): -0.0754
CN[C@@H]1COc2c(S(=O)(=O)NC(=O)Nc3c4c(cc5c3CCC5)CCC4)cnn2C1 — inhibition (refers to: IL-18; human participants, whole blood ex vivo; 900 mg twice daily, multiple doses, 12 h, IL-18, circulating, adjusted for, together with: LPS/ATP; relative to: baseline): 98.1%
Cc1ccc(-c2nsc(N)n2)o1 — IC50 (CoA-CPM signal reduction, CPM fluorescence thiol; cell-free biochemical; assay interference counter-screen, together with: CoA replacing acetyl-CoA): > 125 µM
N#Cc1ccc2c(-c3ccncc3)c(-c3ccc(F)cc3)nn2c1 — log2 fold change (kinase binding, competitor, MIB/MS competition, refers to: NIK1; Candida albicans cell lysate; 1 µM; relative to: DMSO): -0.411
C[C@H]1O[C@@H](O[C@H]2CC[C@@]3(C)[C@@H](CC[C@]4(C)[C@@H]3C=C[C@]35OC[C@@]6(CCC(C)(C)C[C@H]63)[C@@H](O)C[C@]54C)[C@]2(C)CO)[C@H](O)[C@@H](O[C@@H]2O[C@H](CO)[C@@H](O)[C@H](O)[C@H]2O)[C@H]1O — AST activity (chronic-plus-binge ethanol mice, plasma; oral, 5 mg/kg/day for 7 d, 168 h): 55.2 U/L and 45.7 U/L and 54.2 U/L and 48.2 U/L
O=C(O)CNC(=O)Cc1ccccc1 — sarcomere length (ventricular cardiomyocytes, C57BL/6 mouse; dose not given, 0.16 s): 1.65 µm
Cc1cn(-c2ccc3n(c2=O)CCN([C@@H](C)[C@@H]2CC[C@H](c4cc(F)c(Cl)cc4C(F)(F)F)O2)C3=O)cn1 — change in CSF level (refers to: Aβ42; human, cerebrospinal fluid; 150 mg single dose, Tmax; relative to: placebo-adjusted baseline): -33.3%
COc1ccc(-c2ccc3c(N4CCOC[C@@H]4C)nc(N4CCOC[C@@H]4C)nc3n2)cc1COC(=O)CCOCCOCCOCCONC(=O)c1ccc(F)c(F)c1Nc1ccc(I)cc1F — pAKT level (flow cytometry; JAK2V617F myelofibrosis mouse, splenocytes; 40 mg/kg daily, seven days): decreased
CC[C@H](C)[C@H](NC(=O)[C@H](CCCNC(=N)N)NC(=O)[C@H](CCC(=O)O)NC(C)=O)C(=O)N[C@H]1CSSC[C@@H](C(=O)N[C@H](C(N)=O)[C@@H](C)O)NC(=O)[C@H](CCCNC(=N)N)NC(=O)[C@H](Cc2c[nH]cn2)NC(=O)[C@H](Cc2cccc3ccccc23)NC(=O)CNC(=O)[C@H](Cc2c[nH]c3ccccc23)NC(=O)[C@H](CC(=O)O)NC(=O)[C@H](CCC(N)=O)NC(=O)[C@H](Cc2cccc3ccccc23)NC(=O)[C@H](C(C)C)NC1=O — IC50 (complement activation, inhibitor, ELISA, refers to: C3b; normal human serum): 3.85 ± 0.17 µM
CCCCc1nc2c(N)nc3ccccc3c2n1Cc1ccc(CN)cc1 — CD86 induction (CD86 expression, flow cytometry; CD14+ myeloid cells in PBMC, human; 100 or 1000 nM): increased
O=C(O)CCC(=O)O.[2H]C([2H])([2H])Oc1cc(C)c2[nH]ccc2c1CN1CC[C@@H](C2CC2)C[C@H]1c1ccc(C(=O)O)cc1 — maximum inhibition (refers to: complement fragment Bb; healthy humans, plasma; multiple dose, all groups): ~50%
C[C@H](Oc1ccc(Br)cc1-c1ccon1)C(=O)O — difference from placebo (response latency; human, tibialis anterior muscle; 400 mg, 30 Hz+30 s): 0.994%
C[C@H]1C[C@H]2CSC(N)=N[C@@]2(c2nc(NC(=O)c3ccc(OC(F)F)cn3)cs2)CO1 — percent change from baseline (refers to: total Aβ; healthy adults, plasma; 15 mg once daily, day 7; relative to: placebo): -52.2%
C[C@@H](O)CCOC(=O)C[C@@H](C)O — metabolite level (refers to: Asx; human, plasma; 60 min, log2-transformed values): 3.67 ± 0.35 µmol/L
OC(CCN1CCCCC1)(c1ccccc1)C1CC2C=CC1C2 (centres unmarked) — change in EEG Beta2-power Fz-Cz (resting-state EEG; healthy elderly humans; oral, 2 mg, eyes open, LS mean; relative to: baseline): 4.7%
CC(C)c1c(C(=O)Nc2ccccc2)c(-c2ccccc2)c(-c2ccc(F)cc2)n1CC[C@@H](O)C[C@@H](O)CC(=O)O — triglycerides (cynomolgus monkey, female, serum; 40 mg/kg or 25 mg/kg, day 86, 2064 h): 34.1 mg/dL
Cn1cc(Nc2nccc(-c3ccc4c(c3)CN(C3COC3)CC[C@H]4NC(=O)c3cn(C(C)(C)C)nn3)n2)cn1 — pathway activation z-score (refers to: small cell lung cancer; splenic B cells, mice; 30 mg/kg, IgD-activated in vivo; relative to: vehicle, direction not given): 0.775
N#CCC1CCN(c2nc(Nc3ccc(N4CCC(O)CC4)cc3)c3c(=O)[nH]ncc3n2)CC1 — IL-18 level change (Olink multiplex; human, serum; 80 mg, day 29, unit not given; relative to: baseline): -1.59
CCc1c(C)nc(-c2ccc(Cl)s2)nc1Nc1ccc(CC(=O)O)cc1 — TUNEL-positive cells (mice, chronic ethanol plus binge, liver; intraperitoneal, 0.3 mg/kg daily, ethanol diet 4 weeks, dosed last two; relative to: vehicle): decreased
N=C(N/N=C/c1ccccc1)SC1CC(=O)N(c2ccc(Br)cc2)C1=O (centres unmarked) — IC50 (CoA-CPM signal reduction, CPM fluorescence thiol; cell-free biochemical; assay interference counter-screen, together with: CoA replacing acetyl-CoA): > 125 µM
NC(=O)c1cnc2[nH]ccc2c1N[C@@H]1[C@@H]2CC3C[C@H]1C[C@@](O)(C3)C2 — percent change (CD4+ effector memory T cells, flow cytometry; Caucasian humans, peripheral blood; 200 mg single dose; relative to: baseline): 0.23%
CO[C@@H]1[C@@H](OC(N)=O)[C@@H](O)[C@H](Oc2ccc3c(O)c(NC(=O)c4ccc(O)c(CC=C(C)C)c4)c(=O)oc3c2C)OC1(C)C — colony survival (Brca1 wild-type MEFs, mouse; 50 µM): 68.2% and 85.2% and 70.2% and 82.6% and 81.4%
C=CC(=O)Nc1cc(Nc2nccc(Nc3cc(Cl)c(F)cc3C(C)(C)O)n2)c(OC)cc1N1CC[C@@H](N(C)C)C1 — confirmed objective response rate (human, EGFR exon20ins NSCLC; dose not given, V769_D770insASV subtype): 40%
N#Cc1ccc2c(c1)[C@H]1CCCN(C(=O)c3ccc4[nH]cnc4c3)[C@H]1C2 — change in 1.5-AHG (human, plasma; 240 mg, day 15, 360 h; relative to: placebo and baseline): 1.6%
CC1(C)C=C(CNc2ccc3c(c2)Cc2cc(Br)ccc2-3)C(C)(C)N1[O] — MRI contrast (T2 and T2*-weighted MRI; wild-type mouse coronal brain sections; concentration not given; relative to: untreated sections): no effect
CSc1ccc(-c2nsc(N)n2)cc1 — IC50 (CoA-CPM signal reduction, CPM fluorescence thiol; cell-free biochemical; assay interference counter-screen, together with: CoA replacing acetyl-CoA): > 125 µM
CC1(C)CCC(CN2CCN(c3ccc(C(=O)NS(=O)(=O)c4ccc(NCC5CCOCC5)c([N+](=O)[O-])c4)c(Oc4cnc5[nH]ccc5c4)c3)CC2)=C(c2ccc(Cl)cc2)C1 — EC50 (cell kill; primary neoplastic B cells, dog 37; 24 h, multicentric marginal zone lymphoma): > 50 µM
CN(C)C(=O)c1cc2cnc(Nc3ccc(N4CCNCC4)cn3)nc2n1C1CCCC1 — normalized enrichment score (RNA-seq GSEA, refers to: HALLMARK_MYOGENESIS; MB002 tumour; concentration not given, in vivo; relative to: vehicle, direction not given): -2.19
CC(C)c1ccc(S(=O)(=O)Nc2ccc(O)c(Cl)c2)cc1 — IC50 (CoA-CPM signal reduction, CPM fluorescence thiol; cell-free biochemical; assay interference counter-screen, together with: CoA replacing acetyl-CoA): > 125 µM
C[C@@H](NC(=O)N1C(=O)[C@H](Cc2ccnc(N)c2)[C@H]1C(=O)O)C1CCCCC1 — time to aPTT Emax (human; iv infusion, 1.0 mg/kg/h, 24 h; relative to: baseline): 24 h
O=C(Oc1ccc(NS(=O)(=O)c2ccccc2)cc1Br)c1ccccc1 — IC50 (CoA-CPM signal reduction, CPM fluorescence thiol; cell-free biochemical; assay interference counter-screen, together with: CoA replacing acetyl-CoA): > 125 µM
O=C(NC[C@H]1CN(c2ccc(N3CCOCC3=O)cc2)C(=O)O1)c1ccc(Cl)s1 — maximum prothrombin time prolongation (human moderate renal impairment, plasma; 10 mg, geometric mean, unit not given; relative to: baseline): 8.34
CC(C)NCC(O)c1ccc(O)c(O)c1 (centres unmarked) — sarcomere length (ventricular cardiomyocytes, C57BL/6 mouse; dose not given, 0.824 s): 1.54 µm
CC(=O)N(C(=O)c1cc(C(F)(F)F)cc(C(F)(F)F)c1)c1ccccc1 — pseudo-first-order rate constant (HPLC-MS; pH 10.2, together with: 50 mM N-α-acetyl-lysine): 3.1 h⁻¹
Cl.N[C@@H](Cc1ccc(Oc2nnc(-c3ccccc3)nn2)cc1)C(=O)O — kobs (iEDDA cycloaddition; aqueous DMSO 25 %; 37 °C, together with: TCO-OH 15 mM): 1.2 s⁻¹
O=C1Nc2cc3[nH]nc(-c4ccncc4)c3cc2CN1Cc1ccccc1 — partial response, best response (RECIST v1.1; human, relapsed or refractory advanced solid tumours; intravenous, 6.4 mg/kg): 0%
